Published values collected from several papers.
A part holds a random share of what one study measured. Substitutions count along the parent as printed.

Set 1 — technique: RNAcompete; molecule type: RNA; medium: in vitro; tested at: 20 nM; setting: 7-mer, probes averaged, single round; baseline: mean of 7-mers; reading: higher = stronger binding
Target: PABPC1L2, full length, GST fusion (mouse, UniProt A0ABA7IW68)
Target sequence (chain): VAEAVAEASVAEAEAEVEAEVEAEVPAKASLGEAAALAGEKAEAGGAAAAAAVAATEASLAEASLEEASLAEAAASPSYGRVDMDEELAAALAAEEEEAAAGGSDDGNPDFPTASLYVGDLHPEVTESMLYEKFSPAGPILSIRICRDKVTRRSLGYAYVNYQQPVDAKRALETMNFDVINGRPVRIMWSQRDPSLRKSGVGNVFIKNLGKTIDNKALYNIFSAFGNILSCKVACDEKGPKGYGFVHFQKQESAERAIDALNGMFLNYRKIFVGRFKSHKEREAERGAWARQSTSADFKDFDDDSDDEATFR
Strand | 7-mer Z-score
ACUCUAC | -0.211
UCGUCGG | -0.3
UCAACCG | -0.204
CAACCCG | -0.217
CAUAAGU | -0.103
UUUAGGA | 0.0714
GUGGCGG | 0.26
AUUAUCC | -0.269
GCUGAAA | 0.765
AACUCCU | -0.219
CUGGGAU | 0.0189
GAUCGUU | -0.356
CUCACCC | -0.431
GACCCUC | -0.32
CAUUUAC | 0.0859
GCAUCGG | 0.0116
AGCUCCC | -0.233
UGGAUAC | 0.12
ACCGGUU | -0.273
CUAUCCG | -0.385

Set 2 — technique: RNA Bind-n-Seq; molecule type: RNA; medium: in vitro; tested at: 365 nM; baseline: no-protein control; reading: higher = stronger binding
Target: RNA binding protein fox-1 homolog 2, RRM domain, GST-SBP tag (RBFOX2, Homo sapiens, UniProt O43251-10, residues 100-194)
Setting: natural RNA segment, single round, ends assumed
All sequences stand within: GGGAGUUCUACAGUCCGACGAUC … UGGAAUUCUCGGGUGCCAA
Construct (chain): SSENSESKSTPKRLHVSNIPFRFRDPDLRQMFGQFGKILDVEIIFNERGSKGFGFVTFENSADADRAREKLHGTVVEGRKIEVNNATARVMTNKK
Strand | RBNS enrichment (R)
AGAACUGGUCACAUGGGUUUGGAAUCUUUGAUUUCCCCUGUAUGAAUUGUACUGGCUGUUGACCACCAGACACCUGACUGCAAAUAUCUUUUCUUGUAUUCCCAUAUUUC | 0.341
UACCUCACAUUUUUUGUUUCCAUUAGUAAUAUUCUAGGUACCUCACAAAAUGUAUUAUGGUGCCAUGGCUGUUAGUUUUUAGUGAGUGCUGUAGGAUUAAUUCGAAAAUA | 0.61
UGAUAUUUCUUGAAGUCUAACUCUGUGCUAACAGAUCUUCAUUUUAAAUAGAAUACGGUUUUAAUUUUUGAUAAGCUGCUGAAUUUUAAAGAGAGUUUUUUGGGGCCACC | 1.15
CUUCUUGAGACGCCUCUCAAAGCUCUUAAAUGGCUCCUGUGCUAUGUGUGGUGUUGGCAGUCUAAUUUGCUUCUGUUAAAUGUUGUAGAACCUUUUUCACUAGGAAAUAA | 0.478
AUCUUUUGCUUUUUUAAAAUUGUUUUUUGCAGUUAAGAGGCAGCUCAUUUGUCCAAAUUUCUGGGCUCAGCGCUUGGGAGGGCAGGAGCCCUGGCACUAAUGCUGUACAG | 0.612
GUUGCAAAGCCACAGAACAUUAUUGAACAUGUGAUGGGGCAGUGACAAACCUCUGCUGCUUCCCUCUUGGAGGAUACAGUAAUACCAGAGUGUGGAGAUCAGUAACCAUA | 0.23
UAUGAGUGGAUCAAACCGGUUCUGUUCUUUCUUGUGUUGCCAUGUUACUAUGCCUCAAGCCCAGUUUGCUUUUGCCGCAGCGAUGGGGCCAGUCUCAUUCCUCCCCAGGA | 0.239
ACAAAGGGAAGGCUGCUGUGUAGCUCUGUCCACUCUGAAUACCAAGUGUGUUGGGAAUUGCAUGCCAUCUCCACCCUGAGCCUGACCUUUCUGAGUGACAUGGGUGUGCC | 15.1
GACCAGGACGCCUCUGGCCCAGUGCUGCCCAGCCUCCCCGCCCGCUCCCAGGCGCCCCAUGUCCUCACAGGCCAGGACGCCAUGGCAGGAUGGAGAGGACUUGGUGGAUU | 0.196
CCUAUUAAAGACAAAACUGGCUGCUUCUGAGCUCUUUCAGGCUGUACUUUGUGCUGUGCCAGUGGCUCUGCCCAGGCUCCGCCAUCCCUUUACUGGAGUUCAUUGGUCAG | 0.231
UUCAGCCCGUGUCUCAUACACUUGAAGAUGUCUAUAUUGAGUUUGAAGAGGUUAUAAAGGGACAGAUGGUCAUAGAAACCUUUGCAGAGGCAGUUGUGCCAACCCAAGGG | 0.845
GGUCCUGGAUUCUGUGAUGGUAUCAGCACCUGGACGGCCCCAGUCUAGAUUCAGCAAUGAAAAUCCACAAAGAUUCAGGAAAACUUUAGCUACAAAUACCUUAAAAAUGA | 0.512

Set 3 — technique: RNA Bind-n-Seq; molecule type: RNA; medium: in vitro; tested at: not given; baseline: input RNA pool; reading: higher = stronger binding
Target: RING finger protein unkempt homolog, zinc fingers 1-6, GST-SBP tag (UNK, Homo sapiens, UniProt Q9C0B0, residues 30-357)
UniProt Q9C0B0, sequence (30-357, looked up): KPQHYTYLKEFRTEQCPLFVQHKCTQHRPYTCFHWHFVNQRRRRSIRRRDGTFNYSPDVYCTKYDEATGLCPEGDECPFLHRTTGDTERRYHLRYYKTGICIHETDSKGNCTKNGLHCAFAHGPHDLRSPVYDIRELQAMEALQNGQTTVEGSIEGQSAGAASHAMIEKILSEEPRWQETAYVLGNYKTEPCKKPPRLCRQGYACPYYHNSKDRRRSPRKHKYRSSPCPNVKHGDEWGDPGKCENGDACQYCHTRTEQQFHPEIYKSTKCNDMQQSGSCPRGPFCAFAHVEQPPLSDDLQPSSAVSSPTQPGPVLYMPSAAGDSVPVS
Setting: RNA with constant flanks, human and mouse sites, ends assumed
All sequences stand within: GGGAGUUCUACAGUCCGACGAUC … CAACAGAGGAUUGAGCAUCA
Strand | bound/input enrichment [ratio]
CUUUCUGACUAUCAGCGUAUUCGAGUGGAAAAUGUGUGUAAAAGGCUUAAUCUCCAGCCUUUAGCUUAUCUUUGGCAGAGAAACCAGGAAGAUUUGCUCAGAGAGAUGAUAUCAUCUAAC | 0.127
GCAAAACCUUUGCUAGCAAAGCGCCUUUUGUGCCGGGCUGUGGCUCGCUAUCGACAUCUCGUCCGUUACCAAGGCUGGGUUUCCUACUGAUUUCCCUCCUCCUCUGCUUUCACAGGCUCG | 0.143
GCCAGCCGGGAUGGAUAUCCAAUUAUUUUAUAUGAAAUUCCUUCUGGACGUUUCAUGAGAGAAUUGUGUGGCCACCUCAAUAUCAUUUAUGAUCUUUCCUGGUCAAAAGAUGAUCACUAC | 0.161
GGAGCUUUAUCUAAGGCUAUUGACAGAGGAACAAGGGGUAUCAGUUUUGUCCUGAGUGCUUUGGUAUUUAAUCUUCUUCCCAUCAUGUUUGAAGUGAUGCUUGUCAGUGGUGUUUUGUAU | 0.306
GUCUUGUGUUUUGGUUUUGGGGUUUUUGUUUUGUUUGUGUUUUGUUUGGCUUGUUUGUUUUUUAAGGGGAAAAAAGUUUGUAAUUAUUUCAUCCAAAUCUCCCGUUAUAUAUCUGUGAAU | 1.5
AAGUGGUUACGGGAAAUUCUGAUCUGCAGAAAUAAAUUUCUUCUUAAAAAUAAGCAGGCAGAUAGAAGCUCCUGUCAUUCUCUCUACCUUUAUGGAGUAGGAUGUGAAAUGUCUGCUACU | 0.117
GAAGGUUCUAAGACGUGGGAUCGUUUCCAGAUGAGAAUUCACAAGCGACUCAUUGACUUGCACAGUCCUUCUGAGAUUGUUAAGCAGAUUACUUCCAUCAGUAUUGAGCCAGGAGUUGAG | 0.199
CCCCCGGCGGCCGGCUUCCUGUACUGGGUGGGCGCGAGCACCAUUGCCUACCUGGCCCUGCGAGCCUCGUACUCGCUCUUCAGGGCCUUCCAGGUGUGGUGCGUGGGCAACGAGGCCUUG | 0.121
CCAUGUUUAUUAGCUGGAGGUUUAUUAACAUAUAAAUCUCCUGCUACCUCACCCAUUAGUAGUAAUUCUCACAGGUCACUGGAUGGUUUAAGCAGAACUCAGGGUGAAAGUAUAUCAGAA | 0.55
CAAGGCGGUUUCAGAGAAGUUCGGAAUGAGUAUGGGUCAAGAAUAGGAGGAAAUGAAGGGAUAGAUGUCCCCAUUCCAAGAUUUGCUGUUGGCAUUGUAAUAGGAAGAAAUGGAGAGAUG | 3.47
AGUUUCCAGUGAAAGUAAUAUGUAGUGCUUUUAUGAUAUUUGUGUGCAAUAUCCCCUCUUCUAUCAAGGAUAUUUGAUGUAAAGGAAAAACAAACAAACAAACAACAGAAACUCAGUUCC | 0.125

Set 4 — technique: RNA Bind-n-Seq; molecule type: RNA; medium: in vitro; tested at: 200 nM; setting: whole 134-nt RNA, ends assumed; added: 150 mM LiCl; baseline: input library; reading: higher = stronger binding; library: 7-deaza-guanosine replaces G
Target: Ras GTPase-activating protein-binding protein 1, full length (G3BP1, Homo sapiens, UniProt Q13283)
UniProt Q13283, sequence (whole entry, looked up): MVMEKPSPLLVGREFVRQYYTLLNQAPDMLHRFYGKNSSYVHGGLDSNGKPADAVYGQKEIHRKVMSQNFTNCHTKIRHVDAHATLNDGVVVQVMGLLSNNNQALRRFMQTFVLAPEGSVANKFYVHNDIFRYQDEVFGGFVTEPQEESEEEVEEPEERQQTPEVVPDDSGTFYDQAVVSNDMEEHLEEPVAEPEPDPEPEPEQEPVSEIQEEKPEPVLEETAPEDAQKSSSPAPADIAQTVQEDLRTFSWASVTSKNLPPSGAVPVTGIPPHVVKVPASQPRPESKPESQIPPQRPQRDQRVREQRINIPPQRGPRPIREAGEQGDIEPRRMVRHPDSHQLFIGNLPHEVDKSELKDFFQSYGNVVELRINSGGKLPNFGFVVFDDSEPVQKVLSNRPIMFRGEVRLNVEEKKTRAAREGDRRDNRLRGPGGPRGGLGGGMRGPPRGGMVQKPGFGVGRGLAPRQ
All sequences stand within: GGGAGUUCUACAGUCCGACGAUC … UGGAAUUCUCGGGUGUCAAGG
Strand | log2 enrichment
UCCUGUGCUACACAUCGUAUGUACCGAAUCGGGGAAAAAGGGGUUUUUUUGGGGUGGGGAAAGUAUUAUGUUACGCCGUUCGGAUCUGCA | 0.165
ACCAUGCAGGUGGGCAUCUUUGGGAAGUGGGGCAAGGGGGGGAUAGGGAGGGGGGUAACACUUUGGGAACAGGUGGAAACAGGUCGUUUC | -0.0896
UGGGAGGUGGAUUUUGUUUAUUUUUAUAGCUCAUUUCCAGGGGUGGGAAUUUUUUUUUAAUAUGUGUCAUGAAUAAAGUUGUUUUUGAAA | -0.195
AAGUCCUGUGCUACACAUCGUAUGUACCGAAUCGGGAAAAAGGGAAAAAGGGAGGGAAAGUAUUAUGUUACGCCGUUCGGAUCUGCACUU | 0.262
AGUCCUGUGCUACACAUCGUAUGUACCGAAUCGGGUUUGGGAAAAAAAGGGAAAGGGAAAGUAUUAUGUUACGCCGUUCGGAUCUGCACU | -0.986
AGUCCUGUGCUACACAUCGUAUGUACCGAAUCGGGGAAAAAGGGGAGGGGAAAGGGGAAAGUAUUAUGUUACGCCGUUCGGAUCUGCACU | 0.268
UCAAGUCCUGUGCUACACAUCGUAUGUACCGAAUCGGGAGGGUUUUUGGGAGGGAAAGUAUUAUGUUACGCCGUUCGGAUCUGCACUUCC | 0.182
CACAGACAACACGCACCCACACAGACACAGAGGGAAGGGGUUGGGACGGGGACAGGGUGCACAGCAGGGCGGGGUAGGACCCCAGCCCCU | 0.523
UCCUGUGCUACACAUCGUAUGUACCGAAUCAAACCCCCCCAAAUUUUUUUAAAUUUAAAAAAGUAUUAUGUUACGCCGUUCGGAUCUGCA | 1.42
GCAGGAAGUAAAAACAAAUGGAAAUGCUUCGGAUAGUGGCAGGGGUGGGGGUUGCUAAGGAAAGGGUGGGAUGGGAGUGGGUAAAGUGUU | 0.349
CACAGACAACACGCACCCACACAGACACAGAGGGAAGGGUUUGGGAUGGGGACAGGGUGCACAGCAGGGCGGGGUAGGACCCCAGCCCCU | -1.49

Set 5 — target: CCNB2, cyclin fold, Cln2 fusion (human); technique: yeast growth competition, sequencing; medium: yeast; setting: weak parent motif; baseline: not given; reading: higher = stronger binding
Starting sequence: RRM2 docking peptide (human); SKTARRIFQEPTE; partner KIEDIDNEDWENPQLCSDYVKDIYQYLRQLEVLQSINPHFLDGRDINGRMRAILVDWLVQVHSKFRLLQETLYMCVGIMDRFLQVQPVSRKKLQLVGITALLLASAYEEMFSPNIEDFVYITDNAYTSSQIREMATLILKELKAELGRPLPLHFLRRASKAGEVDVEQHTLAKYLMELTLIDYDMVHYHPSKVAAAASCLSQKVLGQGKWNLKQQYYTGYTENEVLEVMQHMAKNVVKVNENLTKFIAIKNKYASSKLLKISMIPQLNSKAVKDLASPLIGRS
Change | normalised enrichment score
AKTARRIFQEPTE [S1A] | 0.452
SKTARRIFQEATE [P11A] | 0.108
SKAARRIFQEPTE [T3A] | -0.159
SKTARRIAQEPTE [F8A] | 0.705
SKTARRIFQEPAE [T12A] | 0.377
SKTARRIFQEPTA [E13A] | 0.254

Further values, each from its own experiment
Substance | target | assay | test system | conditions | how to read | quantity | value
PhoQ, residues 284 288 289 292 302 303 TLSLKA | PhoP, residues 12 14 15 18 19 LWHVM (Escherichia coli, UniProt P23836) | Sort-seq, item: YFP reporter | E. coli | PhoQ-PhoP variant library, added: 10 µM Mg2+ | baseline: high Mg2+ state, higher = stronger signaling | fold induction | 0.609

Repeated from above (set 1):
Strand | 7-mer Z-score
UCGUCGG | -0.3
UCAACCG | -0.204
CAACCCG | -0.217
CAUAAGU | -0.103
UUUAGGA | 0.0714
